Measurements collected from several papers.

CC(=Nc1ccc(N)cc1)N(C)C  half-life (male Sprague-Dawley rat, plasma; intravenous, 20 mg/kg): 5.58 h
O=c1c(-c2ccc(Cl)c(CN3CCOCC3)c2)coc2cc(O)ccc12  half-life (male Sprague-Dawley rat, plasma; intravenous, 2 mg/kg): 7.14 h
CC1(C)C(NC(=O)C(=NOC2(C(=O)O)CC2)c2csc(N)n2)C(=O)N1OS(=O)(=O)O (centres unmarked)  half-life (rat, plasma; intravenous, 10 mg/kg, single dose): 0.65 h
Cc1[nH]nc2c1N=C(c1ccccc1Cl)c1cnc(N3CCOCC3)cc1N2  half-life (male Sprague-Dawley rat, plasma; oral, 5 mg/kg): 3.5 h
CNC(=O)C1CCCN(C(=O)C2CC3CCC2N3C(=O)[C@@H]2C[C@@H](O)CN2C(=O)NCc2cccc(Cl)c2F)C1 (mixture of isomers)  half-life (rat, plasma; intravenous, 2.5 mg/kg): 3.55 h
COc1cc(-c2cc(=O)c3ccc(OCCCn4c(Cl)nc5ccccc54)cc3o2)cc(OC)c1OC  half-life (male Sprague-Dawley rat, plasma; intravenous, 10 mg/kg): 2.98 h
CCCN(C)c1cc(C(F)(F)F)nc(SCCC(=O)NCc2ccco2)n1  half-life (male Wistar rat, plasma; intraperitoneal, 25 mg/kg, single dose): 1.08 h
OC1(C(F)(F)F)CCN(c2nc(Nc3ccnc(C(F)(F)F)c3)nc(-c3cccc(C(F)(F)F)n3)n2)C1 (centres unmarked)  half-life (Sprague-Dawley rat, plasma; oral, 20 mg/kg): 12.1 h
COC(=O)C1=CNC=C(C(=O)OC)C1c1ccc(F)c(C(F)(F)F)c1  half-life (male Sprague-Dawley rat, plasma; oral, 50 mg/kg): 4 h
OCC1OC(n2cnc3c(NCc4ccc(Br)s4)ncnc32)C(O)C1O (centres unmarked)  half-life (male Sprague-Dawley rat, blood; oral, 10 mg/kg): 2.5 to 3.6 h
CCOP(=O)(CC(=O)Nc1ccc(S(=O)(=O)N(CC(N)=O)c2ccc(N(CC(N)=O)S(=O)(=O)c3ccc(OC)cc3)c3ccccc23)cc1)OCC  half-life (male Wistar rat, plasma; intravenous, 28 mg/kg, single dose): 2.75 h
COC1C(c2ccc(Cl)c(Cc3ccc(OC4CCOC4)cc3)c2)OC(CO)C(O)C1O (centres unmarked)  half-life (Sprague-Dawley rat, plasma; intravenous, 2.5 mg/kg): 1.09 h
CN1CCC[C@@H]1C(=O)N[C@@H](Cc1ccc(-c2ccccc2)cc1)B(O)O  half-life (male Sprague-Dawley rat, plasma; intravenous, 1 mg/kg): 4.4 h
CCC(CC)n1c(Cc2ccco2)nc2cc(C(=O)N[C@@H](CC(=O)O)c3ccccc3)ccc21  half-life (male Sprague-Dawley rat, plasma; intravenous, 1 mg/kg): 2.31 h
COCCN(C)CC(=O)NC(Cc1ccc(-c2ccccc2)cc1)B(O)O (centres unmarked)  half-life (rat, plasma; intravenous, 1 mg/kg): 5.3 h
O=C(O)c1c(O)cc(O[C@@H]2O[C@H](CO)[C@@H](O)[C@H](O)[C@H]2O)cc1/C=C/c1ccccc1  half-life (male Sprague-Dawley rat, plasma; oral, 5 mg/kg): 0.63 h
C/C(N)=N/C(=N\S(=O)(=O)c1ccc(C(F)(F)F)cc1)N1C[C@H](c2ccccc2)C(c2ccc(Cl)cc2)=N1  half-life (male Sprague-Dawley rat, plasma; intravenous, 3 mg/kg): 6.8 h
CCC(CC)n1c(Cc2cccs2)nc2cc(C(=O)N[C@@H](CC(=O)O)c3ccccc3)ccc21  half-life (male Sprague-Dawley rat, plasma; intraperitoneal, 10 mg/kg): 2.47 h
Cc1cc2c(cc1O)C=C1C=CC(=O)C(C)(C)[C@H]1CC2  half-life (male Sprague-Dawley rat, plasma; oral, 20 mg/kg): 7.61 h
C=C(NC(=O)c1csc(-c2nc3c(cc2O)-c2nc(cs2)C(=O)NC(C(C)O)C(=O)NC(=C(C)OC)c2nc(cs2)C(=O)NC2c4nc(cs4)C(=O)NC(COC(=O)c4c5c6c(cccc6n4O)COC(=O)C(OC4CC(C)(O)C(N(C)C)C(C)O4)C2OC5)c2nc-3cs2)n1)C(N)=O (centres unmarked)  half-life (female Sprague-Dawley rat, plasma; intravenous, 2 mg/kg, single dose, infusion): 1.98 h
